Results collected from several papers.
Numbered parts are unrelated; each lists some results of a single study.

Study 1
Target: Fragile X messenger ribonucleoprotein 1, C-terminal low-complexity region (Fmr1, Mus musculus, UniProt P35922)
Technique: RNA Bind-n-Seq
Form: RNA
Matrix: in vitro
Concentration: 200 nM
Setting: whole 134-nt RNA, ends assumed
With: 150 mM KCl
Baseline: input library
Direction: higher = stronger binding
Sequence	log2 enrichment
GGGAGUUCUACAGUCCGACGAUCCAAGUCCUGUGCUACACAUCGUAUGUACCGAAUCGGGAAAGGGAGGGAAAAAGGGAAAGUAUUAUGUUACGCCGUUCGGAUCUGCACUUCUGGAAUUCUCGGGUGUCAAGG	0.769
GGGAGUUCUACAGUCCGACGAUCACCAUGCAGGUGGGCAUCUUUGGGAAGUGGGGCAAGGGGGGGAUAGGGAGGGGGGUAACACGUUGGGAACAGGUGGUCCCAGGUCGUUUCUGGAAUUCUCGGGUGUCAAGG	0.919
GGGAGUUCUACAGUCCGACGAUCCACAGACAACACGCACCCACACAGACACAGAGGGAAGGGGUUGGGAUGGGGACAGGGUGCACAGCAUGGCGGGGUAGGACCCCAGCCCCUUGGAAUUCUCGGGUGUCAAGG	1.27
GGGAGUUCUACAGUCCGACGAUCCUGUGCUACACAUCGUAUGUACCGAAUCGGGGCCCCCCCGGGCCCCCCCGGCCCCCCCGGGGAAAGUAUUAUGUUACGCCGUUCGGAUCUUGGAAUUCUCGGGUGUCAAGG	-1.15
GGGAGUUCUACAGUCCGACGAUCUGGGAGGUGGAUUUUGGUUAUUUUUUUAGCUCAUUUCCAGGGGUGGGAAUUUUUUUUUAAUAUGUGUCAUGAAUAAAGUUGUUUUUGAAAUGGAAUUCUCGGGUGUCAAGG	0.264
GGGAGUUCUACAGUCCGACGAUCUUAAGUUGAAGGAGCGCUACCGCAACGUGCUGGACACCAUGUUCGAGCUGCUGCCCCGGAUGGCCAGGUACUGCCAGCCCCCACCCUGGCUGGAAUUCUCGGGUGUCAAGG	-0.378

Study 2
Target: Histone acetyltransferase KAT6A, winged helix 1, GST fusion (KAT6A, Homo sapiens, UniProt Q92794, residues 1-85)
Technique: protein binding microarray
Form: double-stranded DNA, one strand shown
Matrix: in vitro
Concentration: not given
Setting: 8-mer, flanks averaged, mean of 2 arrays, mostly near background
Baseline: not given
Direction: higher = stronger binding
Construct (chain): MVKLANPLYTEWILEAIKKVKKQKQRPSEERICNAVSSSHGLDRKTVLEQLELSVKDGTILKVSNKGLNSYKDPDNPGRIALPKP
Sequence	E-score
ATAGTGTC	-0.00092
AACACGAA	-0.0337
AAAACCAC	-0.0544
AGCTGCTC	-0.0844
ACTACTGG	-0.215
ACGTTTAC	0.0271
ATAAACCC	0.0558

Study 3
Target: Sal-like protein 4, full length isoform B (SALL4, Homo sapiens, UniProt Q9UJQ4-2, residues 1-616)
Technique: universal PBM
Form: double-stranded DNA, one strand shown
Matrix: in vitro
Concentration: not given
Setting: 8-mer, flanks averaged, mean of replicates
Direction: higher = stronger binding
Sequence	E-score
ACAGCACT	-0.00778
CTGATGAA	0.0708
AATACCTA	0.316
CTGCACAG	-0.285
CTCAGGGA	-0.275
ATCCATTA	0.157
GGTCTGAA	-0.0641
CAGTGTGG	-0.0673
ACACTACT	0.0733
CAGCCCAG	-0.395

Mixed results
Substance	target	test	system	setting	how to read	endpoint	result
PhoQ, residues 284 288 289 292 302 303 TNASYF	PhoP, residues 12 14 15 18 19 VHSCL (Escherichia coli, UniProt P23836)	Sort-seq, refers to: YFP reporter	E. coli	PhoQ-PhoP variant library, with: 10 µM Mg2+	baseline: high Mg2+ state, higher = stronger signaling	fold induction	10.1
